{"data": "Measurements of several laboratories", "note": "Compare with care: the assays were run in different laboratories. Values joined by “and” are separate records of one study, mostly repeats; a detail may differ."}
{"SMILES": "N#Cc1cc(NC(=O)[C@H]2c3ccccc3C(=O)N(CC(F)(F)F)[C@@H]2c2cccnc2)ccc1F", "system": "human, plasma", "conditions": "oral, 600 mg, fed, median, interim", "Tmax": "3.4 h"}
{"SMILES": "NC(=S)NN=Cc1ncccc1N", "system": "human, plasma", "conditions": "oral, 150 mg, geometric mean", "Tmax": "1.5 h"}
{"SMILES": "Cn1cc(-c2ccc(S(=O)(=O)[C@@H]3C[C@@H](C(=O)NC4(C#N)CC4)N(C(=O)C4(C(F)(F)F)CC4)C3)c(C(F)(F)F)c2)cn1", "test": "noncompartmental analysis", "system": "human, plasma", "conditions": "oral, 50 mg, day 1, with food, median", "Tmax": "5 h"}
{"SMILES": "C=CC(=O)NC1CCN(c2ncc3ncnc(Nc4ccc(Oc5ccc6c(c5)ncn6C)c(C)c4)c3n2)CC1", "system": "human, male, plasma", "conditions": "oral, 30 mg single dose, fed, median", "Tmax": "3 h"}
{"SMILES": "N[C@](CO)(CCc1ccc(Sc2cccc(OCc3ccccc3)c2)cc1Cl)COP(=O)(O)O", "system": "human fasted, blood", "conditions": "3 mg MOC, MOC given alone", "Tmax": "12 h"}
{"SMILES": "Cn1nnc2c(C(N)=O)ncn2c1=O", "system": "human patients, plasma", "conditions": "oral, 40 mg/m2, day 5, dose level DL5, median, together with: talazoparib 600 µg/m2", "Tmax": "1 h"}
{"SMILES": "Cc1nc(-c2ccc(OCC(C)C)c(C#N)c2)sc1C(=O)O", "system": "human, plasma", "conditions": "oral, 40 mg once daily, together with: verinurad 5 mg", "Tmax": "3 h"}
{"SMILES": "C#C[C@]1(O)CC[C@H]2[C@@H]3CCc4cc(O)ccc4[C@H]3CC[C@@]21C", "system": "human", "Tmax": "3 h"}
{"SMILES": "CC(C)NC(=O)COc1cccc(-c2nc(Nc3ccc4[nH]ncc4c3)c3ccccc3n2)c1", "system": "human male, plasma", "conditions": "oral, 200 mg once daily, day 12, fed, median, together with: dabigatran etexilate", "Tmax": "2 h"}
{"SMILES": "Cc1cc(-c2nccc3c2ccn3CC(=O)Nc2ccc(-c3cnccn3)cn2)ccn1", "system": "human, plasma", "conditions": "oral, 20 mg single dose, median", "Tmax": "1 h"}
{"SMILES": "CC(=O)N(C)[C@H]1CCN(C(=O)c2cnc3c(c2)C[C@](C)(c2ccc(F)cc2)N3)C1", "system": "human, male, plasma", "conditions": "oral, 60 mg once daily, steady state, median", "Tmax": "1 h"}
{"SMILES": "CC#CC(=O)N1CC[C@@H](n2cc(-c3ccc(Oc4c(F)cccc4F)cc3)c3c(N)n[nH]c(=O)c32)C1", "system": "human patients", "conditions": "oral", "Tmax": "1 to 4 h"}
{"SMILES": "CCn1cc(C(=O)N2CCOCC2)c(=O)c2cc(NC3Cc4ccccc4C3)cnc21", "system": "human overall, fed, plasma", "conditions": "oral, 900 mg twice daily, day 7, tablet, median", "Tmax": "3.5 h"}
{"SMILES": "Cc1cc(-c2nnc(N)nc2-c2ccc(F)cc2)cc(Cl)n1", "system": "human patients, plasma", "conditions": "oral, 200 mg capsule once daily, multiple doses, median", "Tmax": "2 h"}
{"SMILES": "COc1ncc(-c2nc3c(n2C(C)C)[C@H](c2ccc(Cl)cc2)N(c2cc(Cl)cn(C)c2=O)C3=O)c(OC)n1", "test": "LC-MS/MS, noncompartmental", "system": "human, plasma", "conditions": "oral, 200 mg, C1D8, high-dose, median", "Tmax": "2.1 h"}
{"SMILES": "CN(CC#N)C(=O)C[C@H](Nc1nc2ccccc2[nH]1)c1cccc(C(F)(F)F)c1", "system": "human", "conditions": "intravenous infusion, 2 mg/kg, 1 mg/mL formulation", "Tmax": "0.48 h"}
{"SMILES": "C#C[C@]1(COP(=O)(O)OP(=O)(O)O)O[C@@H](n2cnc3c(N)nc(F)nc32)C[C@@H]1O", "system": "human, fed, PBMC", "conditions": "oral, 30 mg single", "Tmax": "15 h"}
{"SMILES": "O=C(c1cc(Cc2n[nH]c(=O)c3ccccc23)ccc1F)N1CCN(C(=O)C2CC2)CC1", "system": "human, female, plasma", "conditions": "oral, 250 mg", "Tmax": "1 h"}
{"SMILES": "Cc1noc(C)c1-c1cc(C(O)(c2ccccn2)c2ccccn2)c2nc(C3CC3)[nH]c2c1", "system": "human patients, plasma", "conditions": "oral, 6 mg, cycle 1 day 8, monotherapy", "Tmax": "0.8 h"}
{"SMILES": "C#C[C@]1(CO)O[C@@H](n2cnc3c(N)nc(F)nc32)C[C@@H]1O", "system": "human, plasma", "conditions": "oral, 5 mg single dose", "Tmax": "0.5 h"}
{"SMILES": "C[C@@H](Nc1cc(F)cc(F)c1)c1cc(C(=O)N(C)C)cc2c(=O)cc(N3CCOCC3)oc12", "test": "measured: M1 metabolite", "system": "human", "conditions": "oral, 120 mg, single dose day 1, continuous BID regimen", "Tmax": "2.25 h"}
{"SMILES": "Cc1ncnc2c1ccn2[C@@H]1C[C@H](Oc2cc(C(F)F)c(F)c3c2CNCC3)[C@@H](O)[C@H]1O", "system": "human", "conditions": "oral, 2 mg twice daily", "Tmax": "2.2 h and 1 h"}
{"SMILES": "CC(=O)N1CCC(Nc2cc(C(=O)NC[C@H](O)CN3CCc4ccccc4C3)ncn2)CC1", "system": "human", "conditions": "oral, 400 mg, median", "Tmax": "2 h"}
{"SMILES": "COc1cc([C@H]2Oc3ccc([C@H]4Oc5cc(O)cc(O)c5C(=O)[C@@H]4O)cc3O[C@@H]2CO)ccc1O", "system": "OATP1B1/1B3 humanized mice, plasma", "conditions": "oral gavage, 500 mg/kg silymarin, median", "Tmax": "0.25 h"}
{"SMILES": "O=C(NCCN1CCCC1)c1cc(-c2ccc(CN3CCOCC3)cc2)nc2ccc(F)cc12", "system": "human, whole blood", "conditions": "oral, 1000 mg", "Tmax": "1.5 h"}
{"SMILES": "C[C@@H](Oc1ccc(S(C)(=O)=O)cc1C(=O)N1C[C@@H]2C[C@]2(c2cc(C(F)(F)F)on2)C1)C(F)(F)F", "system": "healthy human volunteers, plasma", "conditions": "oral, 10 mg single dose, fasted and fed states", "Tmax": "3.5 to 4 h"}
{"SMILES": "C[C@H](Oc1ccc(Br)cc1-c1ccon1)C(=O)O", "test": "LC-MS/MS, non-compartmental", "system": "human, plasma", "conditions": "200 mg once daily, day 10, multiple ascending dose, median", "Tmax": "3 h"}
{"SMILES": "N#CCC1CCN(c2nc(Nc3ccc(N4CCC(O)CC4)cc3)c3c(=O)[nH]ncc3n2)CC1", "test": "LC-MS/MS", "system": "human, plasma", "conditions": "oral, 20 mg once daily, day 15, median", "Tmax": "2 h"}
{"SMILES": "Cc1cc(Nc2cc3ncccc3c(N[C@@H]3C[C@H]4CC[C@@H](C3)N4CCC#N)n2)n[nH]1", "system": "human, plasma", "conditions": "10 mg single dose, median", "Tmax": "0.51 h"}
{"SMILES": "CC1=C(c2cccc(O)c2)[C@H](c2ccc(OCCN3CC(CF)C3)cc2)Oc2ccc(O)cc21", "system": "human, plasma", "conditions": "oral, 1000 mg single dose, median", "Tmax": "1.5 h"}
{"SMILES": "CCCCCCCOc1ccc(CCC(N)(CO)CO)cc1C(F)(F)F.Cl", "system": "healthy human males, plasma", "conditions": "oral, 0.125 mg, day 1, median", "Tmax": "16 h"}
{"SMILES": "CCN1CCN(Cc2ccc(Nc3ncc(F)c(-c4cc(F)c5nc6n(c5c4)[C@H](C)CCC6)n3)nc2)CC1", "system": "human, plasma", "conditions": "200 mg multiple dosing, median", "Tmax": "5.95 h"}
{"SMILES": "CN(C(=O)C(C)(C)c1cc(C(F)(F)F)cc(C(F)(F)F)c1)c1cnc(N2C[C@H]3COCCN3C[C@H]2CO)cc1-c1ccc(F)cc1[14CH3]", "test": "LC-MS/MS", "system": "human, plasma", "conditions": "oral, 120 mg", "Tmax": "1.5 h"}
{"SMILES": "Cn1c(=O)oc2ccc(-c3ccc(C[C@@H](C#N)NC(=O)[C@@H]4CNCCCO4)cc3)cc21", "system": "human, severe renal impairment, plasma", "conditions": "oral, 25 mg single dose, median", "Tmax": "1 h"}
{"SMILES": "COc1cc(C(=O)NC2CCN(C)CC2)c(F)cc1Nc1ncc(C(F)(F)F)c(Oc2cccc3c2C(=O)N(C)C3)n1", "system": "human patients, plasma", "conditions": "oral, 10 mg single dose, median", "Tmax": "1.07 h"}
{"SMILES": "Cc1cc(C)c(CNC(=O)c2cc(Cl)c3c(c2C)O[C@@](C)([C@H]2CC[C@H](N(C)C)CC2)O3)c(=O)[nH]1", "test": "median", "system": "healthy male humans, plasma", "conditions": "oral, 25 mg, day 1, alone, itraconazole group", "Tmax": "3.5 h"}
{"SMILES": "Cl.[2H]C([2H])([2H])CC(=O)c1cnc(NC(=O)C2CC2)cc1Nc1cccc(-c2ncn(C([2H])([2H])[2H])n2)c1OC", "test": "median", "system": "human", "conditions": "oral, 100 mg single dose, fasted, liquid", "Tmax": "1 h"}
{"SMILES": "COc1ccc2[nH]c([S@+]([O-])Cc3ncc(C)c(OC)c3C)nc2c1", "system": "human, dried blood spots", "conditions": "oral, 10 mg omeprazole", "Tmax": "2 h"}
{"SMILES": "CC1(COc2ccc3c(c2)ncn3-c2ccc3cccc(N4CCC(N)CC4)c3n2)COC1", "system": "human patients, recurrent/progressive HGG or DIPG, serum", "conditions": "oral, 220 mg/m^2, day 28, median", "Tmax": "3 h"}
{"SMILES": "COc1c(OCCCN2CCOCC2=O)ccc2c3n(c(=NC(=O)c4cnc(N)nc4)nc12)CCN3", "system": "human, plasma", "conditions": "0.8 mg/kg of copanlisib, cycle 1 day 1, median, together with: gemcitabine", "Tmax": "4 h"}
{"SMILES": "COc1cc(-c2cnc3cc(OCCN4CCOCC4)ccn23)cc2c1C(=O)N(CC(F)(F)F)CC2", "test": "LC-MS", "system": "human, plasma", "conditions": "oral, 350 mg, -2 h on day 9, together with: sulfasalazine 1000 mg", "Tmax": "0.5 h"}
{"SMILES": "CC(=O)O.NC(=O)c1cnc(N[C@@H]2CCCC[C@@H]2N)nc1Nc1cccc(-n2nccn2)c1", "system": "human, plasma", "conditions": "oral, 33 mg once daily", "Tmax": "2 h"}
{"SMILES": "CN(C)C(=O)c1cc2cnc(Nc3ccc(N4CCNCC4)cn3)nc2n1C1CCCC1", "system": "human, mild renal impairment, plasma", "conditions": "oral, 400 mg, median", "Tmax": "2 h"}
{"SMILES": "C[C@H](NC(=O)/C(C#N)=C/c1cccc(Br)n1)c1ccccc1", "test": "LC-MS/MS", "system": "human, plasma", "conditions": "oral, 2 mg/kg, cycle 1 day 8", "Tmax": "2 h"}
{"SMILES": "CC(F)(F)c1cc(F)ccc1-c1sc2cc(O)ccc2c1Oc1ccc(/C=C/C(=O)O)cc1", "system": "human, serum", "conditions": "oral, 200 mg once daily, cycle 1 day 28, fasted, median", "Tmax": "2.2 h"}
{"SMILES": "NC(=O)N1c2ccccc2C=Cc2ccccc21", "system": "healthy human subjects, plasma", "conditions": "oral, day 21, twice daily, with glecaprevir and pibrentasvir, median", "Tmax": "4.5 h"}
{"SMILES": "CCNCc1cc(Nc2ccnc3cc(Cl)ccc23)ccc1O", "system": "human, both sexes, plasma", "conditions": "oral, dose not given, fixed-dose combination", "Tmax": "1.36 h"}
{"SMILES": "Cc1cn(C(=O)c2c(-c3c(Cl)cc(Cl)cc3Cl)noc2C(C)(C)F)c2cccc(/C=C/C(=O)O)c12", "system": "human patients", "conditions": "1400 mg bid, cycle 1 day 1", "Tmax": "6 h"}
{"SMILES": "Cn1ncnc1[C@H]1c2n[nH]c(=O)c3cc(F)cc(c23)N[C@@H]1c1ccc(F)cc1", "system": "human patients, plasma", "conditions": "oral, 600 µg/m2 twice daily, day 1, monotherapy, dose level DL4, median", "Tmax": "2 h"}
{"SMILES": "COc1c(C)c2c(c(O[C@@H]3O[C@H](C(=O)O)[C@@H](O)[C@H](O)[C@H]3O)c1C/C=C(\\C)CCC(=O)O)C(=O)OC2", "test": "measured: mycophenolic acid", "system": "healthy human subjects, plasma", "conditions": "oral, 1 g mycophenolate mofetil, median, alone", "Tmax": "1.5 h"}
{"SMILES": "Cn1cncc1[C@@](N)(c1ccc(Cl)cc1)c1ccc2c(c1)c(-c1cccc(Cl)c1)cc(=O)n2C", "system": "human, plasma", "conditions": "oral, 300 mg/m^2, median, initial cohort, first cycle dose", "Tmax": "5 h"}
{"SMILES": "NCCCS(=O)(=O)O", "system": "human, plasma", "conditions": "oral, 340 mg once daily, day 14, capsule, fasted, dosed days 8-14", "Tmax": "1.53 h"}
{"SMILES": "COc1nnc2ccc(N3CCC(c4ccc(OCCN5CCN(C)C(=O)[C@H]5C)cc4)CC3)nn12", "system": "human, plasma", "conditions": "oral, 40 mg once daily, single dose, monotherapy", "Tmax": "1.05 h"}
{"SMILES": "CCOc1c([C@H](C)n2nc(C)c3c(N)ncnc32)cc(Cl)c(F)c1[C@@H]1CNC(=O)C1", "system": "human patients, Hodgkin lymphoma, plasma", "conditions": "oral, 20 mg, day 15, monotherapy", "Tmax": "0.5 h"}
